Measured values collected from several papers.
Each numbered part is a random draw from the data of one study; scales do not carry over between parts.

Study 1
Target: Phosphate system positive regulatory protein PHO4, full length, GST-tagged (PHO4, Saccharomyces cerevisiae, UniProt P07270, residues 1-312)
Method: competition protein-binding microarray
Molecule type: double-stranded DNA, one strand shown
Medium: in vitro
Tested at: 2 µM
Setting: whole 60-bp probe, lowest competitor level
Together with: Cbf1 competitor, 0.05 µM
Direction: higher = stronger binding
All sequences stand within: … GTCTTGATTCGCTTGACGCTGCTG
Residues (chain): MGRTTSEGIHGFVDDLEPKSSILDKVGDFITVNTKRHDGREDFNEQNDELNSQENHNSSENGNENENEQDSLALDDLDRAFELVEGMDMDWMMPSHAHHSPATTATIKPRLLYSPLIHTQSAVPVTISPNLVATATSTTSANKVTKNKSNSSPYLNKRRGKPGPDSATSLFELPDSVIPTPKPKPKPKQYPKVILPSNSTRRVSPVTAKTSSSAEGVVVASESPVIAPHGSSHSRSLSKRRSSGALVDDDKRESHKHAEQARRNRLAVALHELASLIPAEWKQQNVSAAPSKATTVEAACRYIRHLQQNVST
Strand | fluorescence intensity
TGGGCCATTGGCCTTGATGTGATGAACAACAGACTT | 2950 a.u.
GTTATTCGAGATTTGCACGTGGACCCTGAAGTCTTG | 15100 a.u.
CTCAAACGAAGAAAGCACGTGAGGATTGAAGAAAAA | 16700 a.u.
AAATTACTAAGTTGAACTGTGGGTGACGCCGTATGA | 3850 a.u.
ATTGTCCCTTTCCATCACGTGTGGATTTAAGTAGCT | 15200 a.u.
GTCTTGTCTCATTGTCACTCGACTTTCCCCACTTCA | 4340 a.u.
CGGTCAGCCAACTGGCACGTGGTGAGTGTGCCTGGA | 21800 a.u.
CTTTCCCGATCTTGTCACCTGACTTTAGCACATTTG | 4330 a.u.
CGGGGTTAAGTTTGTCACTCCACTTGCTTGCAGCAG | 3850 a.u.
GTTGCTTGCTAATTGCATGATCAAGTTGAGCCGATG | 4200 a.u.
GCACCTCATCTAGCGGAGGTGCAGGGATGTACCAAC | 3130 a.u.

Study 2
Target: RNA binding protein fox-1 homolog 2, RRM domain, GST-SBP tag (RBFOX2, Homo sapiens, UniProt O43251-10, residues 100-194)
Method: RNA Bind-n-Seq
Molecule type: RNA
Medium: in vitro
Tested at: 365 nM
Setting: natural RNA segment, single round, ends assumed
Reference: no-protein control
Direction: higher = stronger binding
All sequences stand within: GGGAGUUCUACAGUCCGACGAUC … UGGAAUUCUCGGGUGCCAA
Residues (chain): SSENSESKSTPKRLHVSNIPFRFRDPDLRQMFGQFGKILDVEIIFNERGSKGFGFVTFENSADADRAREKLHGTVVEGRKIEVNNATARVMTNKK
Strand | RBNS enrichment (R)
UGGCCAAGGGUAGUUUUCAGCUCAAUUUAUAGAAUAGUCCAAAGAGACUUUGAGAAACAUGGUGAUAGGCAGGGGCCUUUCCUACCAUGUUUCAAUACCUACAAACCUAU | 0.484
CUCAGAUCACUAAAAGGAGCAUCAGUGGCCCAAUUCCUCUUACUUUGGGACACACUGUCCACACUCCACCAAGAGCUACACAGAUUCCCACAUAAAGAUAGUGCCCUAAG | 0.284
CGUUUGAAGGUUCGUUUUUUGUUGGAACUCCGGAUGUAGACUAGCCUAGCCUCAGAUCCUCCGUGAGUAUGCCUACCAAAUGUUGUGAUUAAAGAGGCAGGCGUCACCAC | 0.877
GAAGCCAACCAUAUGCUCCUGCCUUGCCGAUAGGUUUUAUUAUUUUUUUUAAAUUAAUGAAAAUAUGUAAUAUUAAUAGUUAUUAUUUACUGGUGCAGAUGGUUGACAUU | 0.624
CUCUUCAUUUCUUGAGGUUGGUAAAAUUAUCGAACAAAGUCCUAAUAUGCCCAAAACUCAGAUCUUUAGAAGUGAUCUUUCACUUGCUUAAUUGCAAAGUAGUUCAAAGC | 0.22
UUCAAAUGUAUCAGAUCUCUGUGCCAGAUACUCAUAUUAGUAUACCCUGUUCAAAGGAGAAUGGUGGAUAAUACUGUCUGAGGAAAUCAGAACUUAUUUGAGAAGGAAGC | 0.38
AGGCACUGCAUGCCUGUCUCCUUAUGAGGAAGGCUGCAAAUUUCAGAGAAAGGGAGGUGAGGUUUCCACCAUGUUGGCUGUUGACUCUCCCUGUAUGUUAAACCCUUGAC | 0.913
GUUUGUUUCUCCAAGCCUGCUUUGUGCUUCUCACCUUUGGGUGGGAUGCCUUGCCAGUGUGUCUUACUUGGUUGCUGAACAUCUUGCCACCUCCGAGUGCUUUGUCUCCA | 0.261

Study 3
Target: Interferon regulatory factor 7, full length, phosphomimetic (IRF7, Homo sapiens, UniProt Q92985, residues 1-503, S101K/S471D/S472D/S475D/S476D/S477D/S483D/S484D/S487D)
Method: protein-binding microarray
Molecule type: double-stranded DNA, one strand shown
Medium: in vitro
Tested at: 250 nM
Setting: 60-bp whole probe
Together with: salmon DNA 0.4 mg/ml
Reference: random background probes
Direction: higher = stronger binding
All sequences stand within: GCCTAGCAC … GTCTTGATTCGCTTGACGCTGCTG
Target sequence (chain): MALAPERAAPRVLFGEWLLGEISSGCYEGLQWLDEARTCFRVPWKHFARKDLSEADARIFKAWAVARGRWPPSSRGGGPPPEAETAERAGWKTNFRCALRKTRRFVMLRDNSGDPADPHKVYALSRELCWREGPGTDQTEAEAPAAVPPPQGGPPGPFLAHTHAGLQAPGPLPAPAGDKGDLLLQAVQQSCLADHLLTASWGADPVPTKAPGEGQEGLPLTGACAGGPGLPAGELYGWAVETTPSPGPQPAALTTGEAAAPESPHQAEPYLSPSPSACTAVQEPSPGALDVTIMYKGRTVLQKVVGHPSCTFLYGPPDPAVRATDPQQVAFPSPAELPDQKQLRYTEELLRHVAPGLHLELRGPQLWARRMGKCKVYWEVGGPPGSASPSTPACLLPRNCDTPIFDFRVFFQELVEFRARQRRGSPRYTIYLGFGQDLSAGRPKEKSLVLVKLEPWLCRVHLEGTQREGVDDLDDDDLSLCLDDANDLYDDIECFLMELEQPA
Strand | log fluorescence
TGCTCTTTCTACATAGATGTGTGCTAG | 0.798 z-score
TCATATACACACTATAGTACTGTGCTA | 0.659 z-score
TACGGACTGCTACTGCTGACGTGCTAG | -0.681 z-score
TTAAATTTCAGTTTCGATTAGTGCTAG | 9.3 z-score
TTAGGTATCCTTACCCTTTAGTGCTAG | -0.0539 z-score
TCAGACCTCGTCTCTATCACTGTGCTA | -0.343 z-score
GACGGACTGGGTTTCGGGCCGTGCTAG | 0.595 z-score
CCATTTTTCTAGTCCAGACTGTGCTAG | 1.75 z-score
TTAGGACTGCTTTTACTTTAGTGCTAG | 0.918 z-score
GACGGTATCCTTATACTGACGTGCTAG | -0.144 z-score
TTAGGTTTCGGGCTTCGGTTAGTGCTA | 4.16 z-score
GACGAGTTCAGTTTCGAGACGTGCTAG | 4.39 z-score
TTAGGTTTCGGTCTCGGTTTGTGCTAG | 9.9 z-score
TCATTATCCTATATCTGACTGTGCTAG | 1.38 z-score
CACGGACTGGACACTGGGGACGTGCTA | -0.813 z-score
AGGACTCTGGAGGTTGAGAAAGTGCTA | -0.791 z-score
TCATCTCTGCTTCTGTAACTGTGCTAG | 0.545 z-score
GACGATCTCAGTCTCGATACGTGCTAG | 0.779 z-score
TTAGAACGGGGGTATCGATTAGTGCTA | 1.57 z-score

Study 4
Target: Sal-like protein 4, full length isoform B (SALL4, Homo sapiens, UniProt Q9UJQ4-2, residues 1-616)
Method: universal PBM
Molecule type: double-stranded DNA, one strand shown
Medium: in vitro
Tested at: not given
Setting: 8-mer, flanks averaged, mean of replicates
Direction: higher = stronger binding
Strand | E-score
GAGTTTCC | -0.0175
GACACACA | 0.155
GAGTATAC | 0.185
AGCTCATG | -0.0684
AGATCCTG | -0.088
CTATACCC | 0.116
CAGTTTAA | 0.152
ATGCGCAC | 0.00016
CACCGGTG | -0.273
GGGATAGA | -0.0428
CCCATCAA | 0.098
CTATCGCA | -0.0394
AGTAACTG | 0.0939
AGCCCGCG | -0.408
CTGTCATC | -0.0873
ACACCAGT | -0.196
AGAGGCAT | -0.011
AATCACGA | 0.108
CGACTAGC | -0.0987
AAATTGGG | 0.174
